Experimental data from different studies.
Every numbered part comes from another study and shows a few of its results, in no order.

Study 1
Target: Replicase polyprotein 1ab, polymerase (rep, Severe acute respiratory syndrome coronavirus 2, UniProt P0DTD1)
Read-out: enzyme activity
Action: inhibitor
Concentration: 20 µM
`O=C(c1cn(Cc2cncn2Cc2ccc(Br)cc2)cc1-c1cccc2ccccc12)N1CCOCC1` has an inhibition of -1.27%.
`O=C1CCC2CCC(=O)N12` gave an inhibition of -2.36%.
For `CC1(C)C(=O)NC2=C1C(=O)C(=O)c1ccccc12`, the inhibition was 38.8%.
For `Cc1cc(-c2ccc(/N=N/c3ccc4c(S(=O)(=O)O)cc(S(=O)(=O)O)c(N)c4c3O)c(C)c2)ccc1/N=N/c1ccc2c(S(=O)(=O)O)cc(S(=O)(=O)O)c(N)c2c1O`, the inhibition was 104%.
With `O=C(O)c1ccccc1Nc1ccc(CCc2ccc(Cl)c(Cl)c2)cc1` the inhibition was 81.8%.
The inhibition of `CC(=O)OCC(=O)[C@@]1(O)CC[C@H]2[C@@H]3CCC4=CC(=O)CC[C@]4(C)[C@H]3C(=O)C[C@@]21C` is reported as -9.03%.
`CCN(CC)C(C)CN1c2ccccc2Sc2ccccc21` (centres unmarked) gave an inhibition of -1.46%.
`CC(=O)C1=C(O)C=C2Oc3c(C(C)=O)c(O)c(C)c(O)c3C2(C)C1=O` (single isomer, unassigned; (+)) has an inhibition of -8.09%.
`CO[C@@H]1[C@H](O)[C@@H](CO)O[C@H]1n1cnc2c(NC3CCCCC3)ncnc21` has an inhibition of -4.7%.
For `CC(=O)[C@H]1CC[C@H]2[C@@H]3CC=C4C[C@@H](O)CC[C@]4(C)[C@H]3CC[C@]12C`, the inhibition was -1.86%.
With `COc1ccc(N(C)c2nc(C)nc3ccccc23)cc1` the inhibition was -9.26%.
`Cc1cc(C)nc(SCC(=O)Nc2ncc(Cc3cccc4ccccc34)s2)n1` gave an inhibition of -5.84%.
`Cc1ccc(Oc2ccccc2-c2csc(N=C3NCCCN3)n2)c(C)c1` gave an inhibition of -4.35%.
The inhibition of `COc1cc(C(C)=O)ccc1OCCCN1CCC(c2noc3cc(F)ccc23)CC1` is reported as -5.35%.
`CCCC(C)C1(CC)C(=O)NC(=O)NC1=O` (centres unmarked) gave an inhibition of 0.99%.
`Cc1c(CN(C)C(=O)/C=C/c2cnc3c(c2)CCC(=O)N3)oc2ccccc12` gave an inhibition of -5.42%.
`O=c1oc2c(O)c(O)cc3c(=O)oc4c(O)c(O)cc1c4c23` gave an inhibition of 1.67%.
For `COc1cc(C(=O)O)ccc1NC(=O)[C@@H]1N[C@@H](CC(C)(C)C)[C@](C#N)(c2ccc(Cl)cc2F)[C@H]1c1cccc(Cl)c1F`, the inhibition was -2.27%.
The inhibition of `NC(=O)NO` is reported as 26.8%.
The inhibition of `Cc1cc(C)cc(C(=O)OC2C[C@H]3CC[C@@H](C2)N3C)c1` (some centres unmarked) is reported as -0.88%.
The inhibition of `CN(C)CCCO[C@@H]1[C@H]2OC(C)(C)O[C@H]2O[C@@H]1[C@H](O)CO` is reported as -4.34%.
The inhibition of `O=C(NO)c1ccc(O)c(O)c1` is reported as -4.36%.
The inhibition of `C[C@H](N)C(=O)NCC(=O)N[C@H]1CSSC[C@@H](C(=O)O)NC(=O)[C@H](CO)NC(=O)[C@H]([C@@H](C)O)NC(=O)[C@H](Cc2ccccc2)NC(=O)[C@H]([C@@H](C)O)NC(=O)[C@H](CCCCN)NC(=O)[C@H](Cc2c[nH]c3ccccc23)NC(=O)[C@H](Cc2ccccc2)NC(=O)[C@H](Cc2ccccc2)NC(=O)[C@H](CC(N)=O)NC(=O)[C@H](CCCCN)NC1=O` is reported as 5.76%.

Study 2
Cell line: HEK-293T/ACE2
Concentration: concentration not given
Time: 16 (unit not given)
Relative to: vehicle
`CCc1cc2c(cc1N1CCC(N3CCOCC3)CC1)C(C)(C)c1[nH]c3cc(C#N)ccc3c1C2=O` gave a viability of 97.4%.
For `CN1CCCC(n2nc(Cc3ccc(Cl)cc3)c3ccccc3c2=O)CC1` (centres unmarked), the viability was 99.9%.
For `O=C(OCc1ccccc1)c1ccccc1`, the viability was 102%.

Study 3
Target: Histone acetyltransferase KAT6A, winged helix 2, GST fusion (KAT6A, Homo sapiens, UniProt Q92794, residues 85-181)
Method: protein binding microarray
Form: double-stranded DNA, one strand shown
Sample: in vitro
Concentration: not given
Notes: 8-mer, flanks averaged, mean of 2 arrays, mostly near background
Relative to: not given
Reading: higher = stronger binding
Residues (chain): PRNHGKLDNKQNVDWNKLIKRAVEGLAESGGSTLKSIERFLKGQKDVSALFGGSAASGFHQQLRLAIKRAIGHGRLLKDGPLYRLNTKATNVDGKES
With `AGTAGGGA` the E-score was -0.111.
The E-score of `CGAAGATA` is reported as 0.127.
`GGATGTAC` has an E-score of -0.182.
`TCAACGGA` has an E-score of -0.0743.
`CAAAAGTA` has an E-score of 0.119.
With `GGTGTAAC` the E-score was 0.0833.
With `ATTTAAAC` the E-score was 0.00244.
`AGGACCCG` has an E-score of 0.0557.

Study 4
Target: Replicase polyprotein 1ab, main protease (rep, Severe acute respiratory syndrome coronavirus 2, UniProt P0DTD1)
Read-out: enzyme activity
Action: inhibitor
Concentration: 20 µM
Notes: hit confirmation
The inhibition of `CN1CCN(CCCCN2C(=O)CN(/N=C/c3ccc(-c4ccc(Cl)cc4)o3)C2=O)CC1` is reported as 41.1%.
With `Cc1ccc(S(=O)(=O)c2ccc([N+](=O)[O-])o2)cc1` the inhibition was 59%.
With `Cc1cc(-c2ccc(/N=N/c3ccc4c(S(=O)(=O)O)cc(S(=O)(=O)O)c(N)c4c3O)c(C)c2)ccc1/N=N/c1ccc2c(S(=O)(=O)O)cc(S(=O)(=O)O)c(N)c2c1O` the inhibition was 102%.
The inhibition of `COC(=O)[C@H](CCSC)NC(=O)c1ccc(NC[C@@H](N)CS)cc1-c1ccccc1` is reported as 73.3%.
`O=c1c(O)c(-c2ccc(O)cc2O)oc2cc(O)cc(O)c12` gave an inhibition of 32.7%.

Study 5
Target: Interferon regulatory factor 7, full length, phosphomimetic (IRF7, Homo sapiens, UniProt Q92985, residues 1-503, S101K/S471D/S472D/S475D/S476D/S477D/S483D/S484D/S487D)
Sequence of UniProt Q92985 (whole entry, unmodified, looked up): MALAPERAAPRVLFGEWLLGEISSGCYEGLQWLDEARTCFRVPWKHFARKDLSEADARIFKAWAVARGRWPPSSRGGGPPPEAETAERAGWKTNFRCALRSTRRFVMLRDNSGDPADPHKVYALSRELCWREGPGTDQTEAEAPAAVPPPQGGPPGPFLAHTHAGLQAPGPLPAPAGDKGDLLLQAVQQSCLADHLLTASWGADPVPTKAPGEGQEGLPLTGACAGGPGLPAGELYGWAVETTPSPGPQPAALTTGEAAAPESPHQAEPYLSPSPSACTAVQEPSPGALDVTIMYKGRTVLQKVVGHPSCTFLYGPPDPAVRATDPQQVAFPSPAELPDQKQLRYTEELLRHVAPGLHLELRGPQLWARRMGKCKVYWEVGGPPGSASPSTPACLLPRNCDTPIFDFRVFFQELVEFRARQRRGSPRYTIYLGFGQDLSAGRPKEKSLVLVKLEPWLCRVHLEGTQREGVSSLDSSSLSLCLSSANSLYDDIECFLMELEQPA
Method: protein-binding microarray
Form: double-stranded DNA, one strand shown
Sample: in vitro
Concentration: 250 nM
Notes: 60-bp whole probe
With: salmon DNA 0.4 mg/ml
Relative to: random background probes
Reading: higher = stronger binding
All sequences stand within: GCCTAGCAC … GTCTTGATTCGCTTGACGCTGCTG
`TACGGTTTCCTTCTCCTGACGTGCTAG` gave a log fluorescence of 2.76 z-score.
With `TTACATTCCAGTTTCGATTAGTGCTAG` the log fluorescence was 9.19 z-score.
For `TAGAGTCTCAACCCCCAATAAGTGCTA`, the log fluorescence was -0.198 z-score.
For `CTTTATGTACTCTCTCCATGTGTGCTA`, the log fluorescence was 0.659 z-score.
The log fluorescence of `AACGGACTGGGTTTCGGGACGTGCTAG` is reported as 1.98 z-score.
`TCATCTCTCCCATTCTGACTGTGCTAG` gave a log fluorescence of 0.894 z-score.
For `TTACATATCGGGACTGGATTAGTGCTA`, the log fluorescence was 0.111 z-score.
With `GACGGTCTCCTATTGCTGACGTGCTAG` the log fluorescence was 0.343 z-score.

Some of these lines once more (study 3):
With `AGTAGGGA` the E-score was -0.111.
The E-score of `CGAAGATA` is reported as 0.127.
`GGATGTAC` has an E-score of -0.182.
`TCAACGGA` has an E-score of -0.0743.
`CAAAAGTA` has an E-score of 0.119.
With `GGTGTAAC` the E-score was 0.0833.
